{"data": "Measurements collected from several papers", "note": "Each numbered part is a random draw from the data of one study; scales do not carry over between parts."}
{"data": "Sample 1", "host": "mouse", "sample": "microsomes or S9", "tested at": "2 µM", "time": "0.5 h"}
{"SMILES": "Cc1cc(C)c2c(c1)C(NC(=O)c1ncoc1C1CCCO1)CCO2 (centres unmarked)", "remaining compound [%]": 1.36}
{"SMILES": "Cc1nn(C)c(C)c1CN(C)S(=O)(=O)c1c(C)n[nH]c1C", "remaining compound [%]": 55}
{"SMILES": "Cc1ccc(CN2C(=O)N(Cc3ccccc3)C(=O)C2CC(C)C)s1 (centres unmarked)", "remaining compound [%]": 1.32}
{"SMILES": "Cc1c(Br)cc(S(=O)(=O)Nc2nnn(C)c2C)cc1C(=O)O", "remaining compound [%]": "> 100"}
{"data": "Sample 2", "Compound": "COc1ccc2[nH]c3c4[nH]c5ccc(OC)cc5c4c4c(c3c2c1)C(=O)NC4=O", "tested at": "1 µM"}
{"target": "MAPK13 (Homo sapiens, UniProt O15264)", "method": "competitive binding", "notes": "p38-delta", "remaining binding [%]": 86}
{"target": "SIK3 (Homo sapiens, UniProt Q9Y2K2)", "method": "competitive binding", "notes": "QSK", "remaining binding [%]": 56}
{"target": "CRK2 (Plasmodium falciparum, UniProt P61075)", "method": "competitive binding, scanMAX", "notes": "Plasmodium falciparum PK5, 1000 nM", "remaining binding [%]": 82}
{"target": "ABL1 (Homo sapiens, UniProt P00519, Q252H)", "method": "competitive binding scan", "remaining binding [%]": 36}
{"target": "MAK (Homo sapiens, UniProt P20794)", "method": "competitive binding panel", "reference": "vehicle", "remaining binding [%]": 82}
{"target": "CSNK2A2 (Homo sapiens, UniProt P19784)", "method": "competitive binding panel", "reference": "vehicle", "remaining binding [%]": 56}
{"data": "Sample 3", "Structure (SMILES)": "CCOC(=O)c1cc2cc(-c3cc(C(=O)NCc4ccc(C(=O)O)cc4)nn3C)ccc2[nH]1", "method": "competition with immobilised ligand", "tested at": "0.1 µM"}
{"target": "MAPKAPK5 (Homo sapiens, UniProt Q8IW41)", "observed": "cell-free assay", "remaining binding [%]": 92}
{"target": "KIT (Homo sapiens, UniProt P10721, D816V)", "observed": "cell-free assay", "remaining binding [%]": 100}
{"target": "BLK (Homo sapiens, UniProt P51451)", "observed": "cell-free assay", "remaining binding [%]": 99}
{"target": "Aurora kinase B (AURKB, Homo sapiens, UniProt Q96GD4)", "observed": "cell-free assay", "remaining binding [%]": 100}
{"target": "IGF1R (Homo sapiens, UniProt P08069)", "observed": "cell-free assay", "remaining binding [%]": 82}
{"target": "Ribosomal protein S6 kinase alpha-4, C-terminal kinase domain (RPS6KA4, Homo sapiens, UniProt O75676)", "observed": "cell-free assay", "remaining binding [%]": 86}
{"target": "Myosin-IIIb (MYO3B, Homo sapiens, UniProt Q8WXR4)", "observed": "binding", "remaining binding [%]": 84}
{"data": "Sample 4", "Structure (SMILES)": "CCC(=O)Nc1ccc2ncnc(Nc3cccc(Br)c3)c2c1", "observed": "enzyme activity", "action": "inhibitor", "tested at": "0.5 µM", "reference": "control"}
{"target": "CDC42BPB (Homo sapiens, UniProt Q9Y5S2)", "remaining activity [%]": 114}
{"target": "CAMK4 (Homo sapiens, UniProt Q16566)", "remaining activity [%]": 103}
{"target": "TLK2 (Homo sapiens, UniProt Q86UE8)", "remaining activity [%]": 104}
{"target": "Cyclin-dependent kinase 1, with cyclin A (CDK1, Homo sapiens, UniProt P06493)", "remaining activity [%]": 87.9}
{"target": "MAPK11 (Homo sapiens, UniProt Q15759)", "remaining activity [%]": 92.9}
{"target": "PLK3 (Homo sapiens, UniProt Q9H4B4)", "remaining activity [%]": 93.2}
{"target": "MAPK1 (Homo sapiens, UniProt P28482)", "remaining activity [%]": 77.7}
{"target": "AKT2 (Homo sapiens, UniProt P31751)", "remaining activity [%]": 102}
{"target": "KDR (Homo sapiens, UniProt P35968)", "remaining activity [%]": 96.5}
{"target": "DDR2 (Homo sapiens, UniProt Q16832)", "remaining activity [%]": 109}
{"target": "NEK3 (Homo sapiens, UniProt P51956)", "remaining activity [%]": 99.6}
{"target": "MARK4 (Homo sapiens, UniProt Q96L34)", "remaining activity [%]": 80.2}
{"target": "DCLK2 (Homo sapiens, UniProt Q8N568)", "remaining activity [%]": 89}
{"target": "PAK3 (Homo sapiens, UniProt O75914)", "remaining activity [%]": 105}
{"target": "ROCK1 (Homo sapiens, UniProt Q13464)", "remaining activity [%]": 99.5}
{"note": "For quick reference, copied from above (sample 4):"}
{"target": "KDR (Homo sapiens, UniProt P35968)", "remaining activity [%]": 96.5}
{"target": "DDR2 (Homo sapiens, UniProt Q16832)", "remaining activity [%]": 109}
{"target": "NEK3 (Homo sapiens, UniProt P51956)", "remaining activity [%]": 99.6}
{"target": "MARK4 (Homo sapiens, UniProt Q96L34)", "remaining activity [%]": 80.2}
